Measured values of several laboratories.
Chain of UniProt P05164 (whole entry, looked up): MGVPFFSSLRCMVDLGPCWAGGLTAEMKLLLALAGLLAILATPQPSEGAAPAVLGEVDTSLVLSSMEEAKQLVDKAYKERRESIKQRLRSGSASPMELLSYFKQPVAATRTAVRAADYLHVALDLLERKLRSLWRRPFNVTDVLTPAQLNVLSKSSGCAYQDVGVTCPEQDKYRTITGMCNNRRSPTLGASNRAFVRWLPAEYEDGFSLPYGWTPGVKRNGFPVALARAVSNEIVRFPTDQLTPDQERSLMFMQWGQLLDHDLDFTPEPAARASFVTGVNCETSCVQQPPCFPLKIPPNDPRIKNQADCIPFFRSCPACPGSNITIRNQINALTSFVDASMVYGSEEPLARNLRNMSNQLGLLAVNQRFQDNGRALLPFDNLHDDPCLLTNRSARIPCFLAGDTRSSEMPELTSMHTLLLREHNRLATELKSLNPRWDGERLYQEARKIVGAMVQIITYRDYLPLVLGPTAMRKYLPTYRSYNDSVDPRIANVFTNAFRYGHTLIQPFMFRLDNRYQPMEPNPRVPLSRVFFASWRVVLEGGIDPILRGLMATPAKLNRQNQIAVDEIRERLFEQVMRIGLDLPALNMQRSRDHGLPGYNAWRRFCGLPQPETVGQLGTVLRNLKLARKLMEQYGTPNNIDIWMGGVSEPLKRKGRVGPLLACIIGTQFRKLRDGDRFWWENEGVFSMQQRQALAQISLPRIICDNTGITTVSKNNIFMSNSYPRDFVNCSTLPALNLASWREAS
Chain of UniProt O43283 (whole entry, looked up): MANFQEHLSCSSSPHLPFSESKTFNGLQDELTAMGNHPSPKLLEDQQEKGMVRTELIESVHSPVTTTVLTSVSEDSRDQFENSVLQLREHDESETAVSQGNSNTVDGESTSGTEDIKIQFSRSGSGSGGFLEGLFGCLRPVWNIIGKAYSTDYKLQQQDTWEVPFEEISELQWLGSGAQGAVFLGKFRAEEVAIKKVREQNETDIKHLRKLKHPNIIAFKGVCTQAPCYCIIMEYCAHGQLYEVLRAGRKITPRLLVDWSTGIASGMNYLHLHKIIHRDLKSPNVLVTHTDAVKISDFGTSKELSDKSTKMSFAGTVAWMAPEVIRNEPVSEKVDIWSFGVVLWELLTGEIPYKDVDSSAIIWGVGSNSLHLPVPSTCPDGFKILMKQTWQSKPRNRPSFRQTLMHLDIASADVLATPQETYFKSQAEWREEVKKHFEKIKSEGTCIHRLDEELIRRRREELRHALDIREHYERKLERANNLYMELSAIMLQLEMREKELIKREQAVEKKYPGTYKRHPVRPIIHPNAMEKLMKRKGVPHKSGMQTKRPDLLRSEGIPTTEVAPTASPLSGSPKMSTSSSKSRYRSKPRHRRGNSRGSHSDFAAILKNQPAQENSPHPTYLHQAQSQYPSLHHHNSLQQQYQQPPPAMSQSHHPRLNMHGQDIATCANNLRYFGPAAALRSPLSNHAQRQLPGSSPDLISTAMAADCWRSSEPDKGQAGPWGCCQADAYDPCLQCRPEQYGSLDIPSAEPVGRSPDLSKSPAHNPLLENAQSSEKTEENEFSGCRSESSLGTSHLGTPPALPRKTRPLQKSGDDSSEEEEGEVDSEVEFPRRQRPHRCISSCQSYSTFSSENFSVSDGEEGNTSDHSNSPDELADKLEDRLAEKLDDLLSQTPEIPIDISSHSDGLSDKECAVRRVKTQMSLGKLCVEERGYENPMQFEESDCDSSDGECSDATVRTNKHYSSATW
Chain of UniProt P06797 (whole entry, looked up): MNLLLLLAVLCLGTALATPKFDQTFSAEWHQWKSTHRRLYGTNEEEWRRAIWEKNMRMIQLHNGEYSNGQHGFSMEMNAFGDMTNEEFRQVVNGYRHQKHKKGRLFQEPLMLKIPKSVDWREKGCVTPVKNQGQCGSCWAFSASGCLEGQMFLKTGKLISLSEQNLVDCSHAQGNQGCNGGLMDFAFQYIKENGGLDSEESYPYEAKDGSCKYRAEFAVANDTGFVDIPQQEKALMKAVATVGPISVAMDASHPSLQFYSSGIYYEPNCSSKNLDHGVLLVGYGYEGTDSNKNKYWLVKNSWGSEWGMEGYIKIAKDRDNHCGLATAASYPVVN
Chain of UniProt P16591 (whole entry, looked up): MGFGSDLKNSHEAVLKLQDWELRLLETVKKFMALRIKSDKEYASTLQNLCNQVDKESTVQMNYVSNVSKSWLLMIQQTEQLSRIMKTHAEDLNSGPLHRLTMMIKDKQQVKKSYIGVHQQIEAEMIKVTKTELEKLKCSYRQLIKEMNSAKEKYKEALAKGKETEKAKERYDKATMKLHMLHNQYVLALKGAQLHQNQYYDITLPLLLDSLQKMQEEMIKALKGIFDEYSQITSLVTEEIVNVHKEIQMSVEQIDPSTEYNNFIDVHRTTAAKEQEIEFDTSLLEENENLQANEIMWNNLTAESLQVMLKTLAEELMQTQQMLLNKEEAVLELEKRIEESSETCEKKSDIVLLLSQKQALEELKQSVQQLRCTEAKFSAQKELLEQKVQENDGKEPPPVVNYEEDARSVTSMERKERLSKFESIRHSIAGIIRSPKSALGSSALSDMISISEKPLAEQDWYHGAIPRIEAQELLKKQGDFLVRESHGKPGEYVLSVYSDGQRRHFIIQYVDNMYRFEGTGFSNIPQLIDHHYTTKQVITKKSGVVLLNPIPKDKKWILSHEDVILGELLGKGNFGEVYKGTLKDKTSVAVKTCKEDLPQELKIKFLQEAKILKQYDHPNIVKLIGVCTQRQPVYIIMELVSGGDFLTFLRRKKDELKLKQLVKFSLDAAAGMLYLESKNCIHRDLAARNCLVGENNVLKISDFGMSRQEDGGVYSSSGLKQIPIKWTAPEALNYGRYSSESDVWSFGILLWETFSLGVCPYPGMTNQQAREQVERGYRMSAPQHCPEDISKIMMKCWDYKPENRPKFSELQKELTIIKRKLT
Chain of UniProt P37173 (whole entry, looked up): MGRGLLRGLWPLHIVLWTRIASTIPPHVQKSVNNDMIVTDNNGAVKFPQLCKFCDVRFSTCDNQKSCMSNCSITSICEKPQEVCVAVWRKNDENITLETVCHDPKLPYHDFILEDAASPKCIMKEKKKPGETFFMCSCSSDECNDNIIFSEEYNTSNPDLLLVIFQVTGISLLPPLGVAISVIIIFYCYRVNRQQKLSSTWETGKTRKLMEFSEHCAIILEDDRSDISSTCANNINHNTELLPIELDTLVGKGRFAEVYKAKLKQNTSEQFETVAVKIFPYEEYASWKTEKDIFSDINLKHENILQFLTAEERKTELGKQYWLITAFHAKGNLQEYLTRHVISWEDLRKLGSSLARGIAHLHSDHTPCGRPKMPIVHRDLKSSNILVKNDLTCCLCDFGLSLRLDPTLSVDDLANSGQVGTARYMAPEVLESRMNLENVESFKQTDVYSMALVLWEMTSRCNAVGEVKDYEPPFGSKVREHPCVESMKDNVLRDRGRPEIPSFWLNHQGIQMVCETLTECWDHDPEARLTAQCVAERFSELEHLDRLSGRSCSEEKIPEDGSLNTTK
Chain of UniProt Q9P0L2 (whole entry, looked up): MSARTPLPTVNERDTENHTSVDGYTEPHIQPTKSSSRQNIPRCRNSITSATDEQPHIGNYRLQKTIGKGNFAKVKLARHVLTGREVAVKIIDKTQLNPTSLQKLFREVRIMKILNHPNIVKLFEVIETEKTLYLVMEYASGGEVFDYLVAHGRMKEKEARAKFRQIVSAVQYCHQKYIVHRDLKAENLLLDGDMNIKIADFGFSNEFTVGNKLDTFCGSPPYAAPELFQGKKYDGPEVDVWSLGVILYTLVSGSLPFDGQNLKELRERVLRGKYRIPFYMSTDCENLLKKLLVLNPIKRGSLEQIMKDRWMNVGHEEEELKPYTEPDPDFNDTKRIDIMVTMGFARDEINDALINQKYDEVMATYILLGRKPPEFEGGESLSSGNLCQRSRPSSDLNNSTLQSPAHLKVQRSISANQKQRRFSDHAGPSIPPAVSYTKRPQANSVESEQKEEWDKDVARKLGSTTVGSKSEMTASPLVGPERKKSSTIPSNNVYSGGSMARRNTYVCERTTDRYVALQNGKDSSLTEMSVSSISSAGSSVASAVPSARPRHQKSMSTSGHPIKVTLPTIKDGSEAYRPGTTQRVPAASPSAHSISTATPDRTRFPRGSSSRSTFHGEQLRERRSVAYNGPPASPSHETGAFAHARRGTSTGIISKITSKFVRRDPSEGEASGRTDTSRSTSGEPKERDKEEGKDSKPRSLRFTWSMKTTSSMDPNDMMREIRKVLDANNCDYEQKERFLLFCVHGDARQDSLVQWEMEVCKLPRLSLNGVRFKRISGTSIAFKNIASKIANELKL
Chain of UniProt P51956 (whole entry, looked up): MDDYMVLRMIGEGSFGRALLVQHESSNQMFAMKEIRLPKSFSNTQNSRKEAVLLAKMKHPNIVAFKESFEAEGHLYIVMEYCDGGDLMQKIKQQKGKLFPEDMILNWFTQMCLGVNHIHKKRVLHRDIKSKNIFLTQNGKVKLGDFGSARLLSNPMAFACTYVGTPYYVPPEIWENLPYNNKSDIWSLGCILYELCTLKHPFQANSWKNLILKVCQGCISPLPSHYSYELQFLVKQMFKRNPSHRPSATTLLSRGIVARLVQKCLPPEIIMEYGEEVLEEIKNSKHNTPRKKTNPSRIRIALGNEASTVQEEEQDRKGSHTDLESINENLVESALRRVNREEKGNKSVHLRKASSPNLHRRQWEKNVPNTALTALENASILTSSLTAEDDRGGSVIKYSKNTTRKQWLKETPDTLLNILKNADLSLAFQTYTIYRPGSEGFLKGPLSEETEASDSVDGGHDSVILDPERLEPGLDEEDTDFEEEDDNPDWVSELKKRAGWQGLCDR
Chain of UniProt Q9HC98 (whole entry, looked up): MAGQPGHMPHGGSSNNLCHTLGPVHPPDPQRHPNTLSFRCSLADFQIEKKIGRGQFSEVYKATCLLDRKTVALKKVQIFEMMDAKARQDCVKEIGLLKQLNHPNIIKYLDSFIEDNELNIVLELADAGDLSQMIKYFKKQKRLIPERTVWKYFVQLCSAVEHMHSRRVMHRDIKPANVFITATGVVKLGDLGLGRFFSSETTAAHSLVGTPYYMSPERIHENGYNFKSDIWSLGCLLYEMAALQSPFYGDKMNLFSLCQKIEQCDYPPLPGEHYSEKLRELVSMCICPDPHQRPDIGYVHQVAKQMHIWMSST

| SMILES | target | assay | setting | scale | remaining activity [%] |
| --- | --- | --- | --- | --- | --- |
| CNc1ncc2c(/C=C/C(=O)N3CCC(OC)CC3)nn(Cc3cccc(C(F)(F)F)c3)c2n1 | TGF-beta receptor type-2 (TGFBR2, Homo sapiens, UniProt P37173) | kinase activity, inhibitor | 1 µM | reference: untreated control | 87 |
| COc1cc(F)ccc1-c1ncnc(Nc2cccc(C[S@](C)(=N)=O)c2)n1 | Serine/threonine-protein kinase Nek3 (NEK3, Homo sapiens, UniProt P51956) | kinase activity | 10 µM, added: 10 µM ATP |  | 54 |
| Cc1cc(Nc2cc(N3CCN(C)CC3)nc(Sc3ccc(NC(=O)C4CC4)cc3)n2)[nH]n1 | MAP kinase-interacting serine/threonine-protein kinase 2 (MKNK2, Homo sapiens, UniProt Q9HBH9) | kinase activity, KinaseProfiler | 0.03 µM, species human | reference: control | 88 |
| COc1cc(Nc2ncc3c(n2)-c2ccc(Cl)cc2C(c2c(F)cccc2OC)=NC3)ccc1C(=O)O | PASK | kinase activity | 1 µM |  | 98 |
| NC/C(=C\F)COc1cccc(Cn2c(=S)[nH]c(=O)c3[nH]cnc32)c1 | Myeloperoxidase (MPO, Homo sapiens, UniProt P05164) | chlorination activity, iodide-catalysed TMB HOCl production | 10 µM | reference: control | 0.566 |
| COc1cc(N2CCN(C)CC2)ccc1Nc1nc(N)n(C(=S)NCc2c(Cl)cccc2Cl)n1 | Mitogen-activated protein kinase kinase kinase 13 (MAP3K13, Homo sapiens, UniProt O43283) | enzyme activity | 10 µM | reference: control | 7.5 |
| O=C(NC1CCC1)c1ccc2nc(-c3cccc(NS(=O)(=O)NCCN4CCCCC4)c3)cn2c1 | Mitogen-activated protein kinase 12 (MAPK12, Homo sapiens, UniProt P53778) | enzyme activity | 10 µM |  | 100 |
| Cc1cccc(C)c1C(=O)OCC(=O)[C@H](CCCCN)NC(=O)[C@H](CCCNC(=N)N)NC(=O)OCc1ccccc1 | Procathepsin L (Mus musculus, UniProt P06797) | inhibitor | 0.1 µM, room temperature, added: AMC substrate |  | 100 |
| O=C(O)c1ccc(Nc2ncc3c(n2)-c2ccc(Cl)cc2C(c2c(F)cccc2F)=NC3)cc1 | MST2(h) | kinase activity | 1 µM |  | 100 |
| O=C1NC(=O)/C(=C/c2ccc(-c3ccc(F)cc3O)o2)S1 | Serine/threonine-protein kinase MARK1 (MARK1, Homo sapiens, UniProt Q9P0L2) | enzyme activity | 10 µM |  | 88 |
| C=CC(=O)N1CCC[C@@H](n2nc(-c3ccc(Oc4ccccc4)cc3)c3c(N)ncnc32)C1 | Tyrosine-protein kinase Fer (FER, Homo sapiens, UniProt P16591) |  | 0.1 µM |  | 97.1 |
| COc1cc(-c2cncc3c2CN(C)Cc2cc(N4CCNCC4)ccc2-3)cc(OC)c1OC | Serine/threonine-protein kinase Nek6 (NEK6, Homo sapiens, UniProt Q9HC98) | kinase activity | 1 µM, human enzyme, added: ATP 10 µM | reference: DMSO control | 109 |

A few entries again:
| SMILES | target | assay | setting | scale | remaining activity [%] |
| --- | --- | --- | --- | --- | --- |
| CNc1ncc2c(/C=C/C(=O)N3CCC(OC)CC3)nn(Cc3cccc(C(F)(F)F)c3)c2n1 | TGF-beta receptor type-2 (TGFBR2, Homo sapiens, UniProt P37173) | kinase activity, inhibitor | 1 µM | reference: untreated control | 87 |
